Measured values collected from several papers.
Each numbered part is a random draw from the data of one study; scales do not carry over between parts.
Chain of UniProt P62837 (whole entry, looked up): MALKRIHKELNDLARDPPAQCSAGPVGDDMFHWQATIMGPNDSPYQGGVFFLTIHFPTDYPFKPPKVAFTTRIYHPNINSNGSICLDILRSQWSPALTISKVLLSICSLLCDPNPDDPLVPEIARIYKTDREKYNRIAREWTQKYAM

Set 1 — method: RNA Bind-n-Seq; molecule type: RNA; sample: in vitro; concentration: not given; baseline: input RNA pool; direction: higher = stronger binding; quantity: bound/input enrichment
Target: RING finger protein unkempt homolog, zinc fingers 1-6, GST-SBP tag (UNK, Homo sapiens, UniProt Q9C0B0, residues 30-357)
Setting: RNA with constant flanks, human and mouse sites, ends assumed
All sequences stand within: GGGAGUUCUACAGUCCGACGAUC … CAACAGAGGAUUGAGCAUCA
Target sequence (chain): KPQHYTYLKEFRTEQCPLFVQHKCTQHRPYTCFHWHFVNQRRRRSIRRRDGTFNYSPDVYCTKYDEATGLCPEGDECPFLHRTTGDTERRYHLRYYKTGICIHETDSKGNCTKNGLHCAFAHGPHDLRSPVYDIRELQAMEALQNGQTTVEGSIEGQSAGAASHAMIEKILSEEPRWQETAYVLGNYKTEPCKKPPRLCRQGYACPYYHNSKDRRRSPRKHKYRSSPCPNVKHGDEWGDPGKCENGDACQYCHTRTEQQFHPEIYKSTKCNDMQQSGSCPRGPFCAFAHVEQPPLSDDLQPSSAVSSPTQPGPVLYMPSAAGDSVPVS
GGAAAUUCAGGUAACUUGAAAAGCUCAGACAGAAAUCCUCCACUCAGUCCUCAGUCCUCUAUAGAUAGUGAGUUAAGUGCUUCAGAAUUAGAUGAAGAUUCAAUUGGAUCCAAUUAUAAG: 4.05 ratio
GGUGCUACACGAAUCCCUGCGGUAAAAGAGAAGAUCAGCAAAUUUUUCGGUAAAGAACUUAGUACAACAUUAAAUGCUGAUGAAGCUGUCACUCGAGGCUGUGCAUUGCAGUGUGCCAUC: 1.02 ratio
ACUAAGCAGGAAGGGAUGGAAGGCCUCCUUGGGACUCUAGUGCAGCUUCUGGGUUCCGAUGAUAUAAAUGUGGUCACCUGUGCAGCUGGAAUUCUCUCUAACCUCACUUGCAAUAAUUAC: 0.226 ratio
AAAGACAAGUGUGUCCUGUGUGGAGGACUAACCUUAGAGAGGAGGAGAUUCCACCUGGCCUAGCUUUAUGGCUGUCAAUUGUCUAUUUUGCCAUUUAUAAGCUGAAAGAAGGCACUAAAG: 0.208 ratio
GAGAAGGUUCUGUCUCCUUUACGCAGUCCUCCCCUUCUUGGAUCUGAGUCCCCAUAUGAAGACUUCCUGAGUGCUGAUAGCAAGGUUCUUGGCAGACGUUCCGAAAGCCCCUUUGAAGGG: 0.126 ratio
GCACCCAGGAGCGGGGAAGCGAAGUGCGAGAGACCCCGGACCCCAGCGCUGUCUCUUCCCGCCGCCCGAACCACCAUGACCCACUUCAACAAGGGCCCUUCCUAUGGGCUCUCGGCCGAA: 0.183 ratio
CGCCUGGACAUGUCCCAGAAUGUGUCCUUGGUCACUGCUGAACUGAGCAAGGACGCCCAGGCGUCAGCCGCCCCUGCAGCACCCUUGCCUGAGCGGAACUCUCUCAGUGCCAUCUUCAAC: 0.0509 ratio
AUGGAACAGAAACAUAGAGAGGAACUGGAGCAAUUGAAGCUGACUACUAAGGAGAAUAAGAUAGAUUCUGUUGCUGUUAACAUUUCAAACUUGGUGCUUGAGAAUCAGCCACCUCGGAUA: 0.388 ratio

Set 2 — method: RNA Bind-n-Seq; molecule type: RNA; sample: in vitro; concentration: 200 nM; setting: whole 134-nt RNA, ends assumed; with: 150 mM KCl; baseline: input library; direction: higher = stronger binding; quantity: log2 enrichment
Target: Ras GTPase-activating protein-binding protein 1, full length (G3BP1, Homo sapiens, UniProt Q13283)
Chain of UniProt Q13283 (whole entry, looked up): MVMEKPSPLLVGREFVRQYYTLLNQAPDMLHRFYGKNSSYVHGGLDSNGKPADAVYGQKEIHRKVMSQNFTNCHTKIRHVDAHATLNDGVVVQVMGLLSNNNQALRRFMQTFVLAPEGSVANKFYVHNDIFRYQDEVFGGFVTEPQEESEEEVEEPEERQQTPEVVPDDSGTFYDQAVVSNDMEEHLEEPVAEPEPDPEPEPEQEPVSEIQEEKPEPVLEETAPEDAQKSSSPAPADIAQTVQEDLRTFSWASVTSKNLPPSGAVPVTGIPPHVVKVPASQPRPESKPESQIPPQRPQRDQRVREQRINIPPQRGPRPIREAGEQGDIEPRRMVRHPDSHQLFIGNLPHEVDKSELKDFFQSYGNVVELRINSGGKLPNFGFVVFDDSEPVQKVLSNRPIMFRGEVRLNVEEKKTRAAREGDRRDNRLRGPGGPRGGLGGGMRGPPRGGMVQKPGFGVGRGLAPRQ
All sequences stand within: GGGAGUUCUACAGUCCGACGAUC … UGGAAUUCUCGGGUGUCAAGG
GUCCUGUGCUACACAUCGUAUGUACCGAAUCGGCCCCCGGGGCCCCCGGGCCCCCGGGAAAGUAUUAUGUUACGCCGUUCGGAUCUGCAC: -0.604
UCCUGUGCUACACAUCGUAUGUACCGAAUCGGGUUUUUUGGGUUUUUUGGUUUUUUGGGGAAAGUAUUAUGUUACGCCGUUCGGAUCUGC: -0.547
AAGUCCUGUGCUACACAUCGUAUGUACCGAAUCGGGAAAAAAAGGGAGGGUUUGGGAAAGUAUUAUGUUACGCCGUUCGGAUCUGCACUU: 0.129
GCAGGAAGUAAAAACAAAUGGAAAUGCUUCGGAUAGUGGCAGGGGUGGGGGUUGCUAAGGAAAGGGUGGGAUGAGAGUGGGUAAAGAGUU: 0.801
AGUCCUGUGCUACACAUCGUAUGUACCGAAUCGGGCCCCCGGCCCCCGGCCCCCGGGGAAAGUAUUAUGUUACGCCGUUCGGAUCUGCAC: -0.606
GCAGGAAGUAAAAACAAAUGGAAAUGCUUCGGAUAGUGGCAGGGGUGGGGGUUGCUAAGGAAAGGGUGGGAUGGGAGUGGGUAAAGCGUU: 1.03
AGUCCUGUGCUACACAUCGUAUGUACCGAAUCGGGAAAAAGGGAAAAAAAGGGUGGGAAAGUAUUAUGUUACGCCGUUCGGAUCUGCACU: 0.0725
UCUGCUAAAGAGAAAGGAAAAUUUGAAGAUAUGGCAAAAGCGGACAAGGCCCGUUAUGAAAGAGAAAUGAAAACCUAUAUCCCUCCCAAA: 0.593

Set 3 — method: EMSA with sequencing; molecule type: double-stranded DNA, one strand shown; sample: in vitro; concentration: 10 and 20 nM; baseline: negative control set to 0; direction: higher = stronger binding; quantity: normalised bound fraction
Target: Hepatocyte nuclear factor 3-alpha (Foxa1, Mus musculus, UniProt P35582, residues 1-468, full length assumed)
Setting: whole designed probe, mean of two concentrations, ends assumed
All sequences stand within: GTGAGCGGTGCCCATTGATGGGGAAC … TTTCACTGGGATCGTGGGGAC
Residues (chain): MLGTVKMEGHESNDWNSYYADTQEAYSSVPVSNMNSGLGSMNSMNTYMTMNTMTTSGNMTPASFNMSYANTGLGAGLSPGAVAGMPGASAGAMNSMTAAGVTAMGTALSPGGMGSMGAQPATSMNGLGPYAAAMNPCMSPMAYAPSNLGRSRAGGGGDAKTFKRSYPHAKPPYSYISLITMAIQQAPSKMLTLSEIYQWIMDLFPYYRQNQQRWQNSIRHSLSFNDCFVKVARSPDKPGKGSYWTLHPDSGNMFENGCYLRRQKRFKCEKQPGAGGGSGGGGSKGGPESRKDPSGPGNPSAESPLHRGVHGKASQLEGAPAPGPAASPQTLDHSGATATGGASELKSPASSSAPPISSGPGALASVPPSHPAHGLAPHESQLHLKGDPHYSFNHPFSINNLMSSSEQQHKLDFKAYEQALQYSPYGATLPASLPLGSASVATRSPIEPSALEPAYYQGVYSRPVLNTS
ATCTTCCCCCTCTTCCTTGCCCCACCAGCTCACCTTCCCGGGTTGTTTACTTTGAGTATTTATTTTCAAGCCGGCATTCGTTAACCCTCTTCTGGCGCAAACTGCCAGAGCAAACAGATGAATCATGGTCCTTTGGCGACGCCAGGCTCCGGGAGAGCAAAGCACCGTGTCAGGGCCATGATCCGGGGTGGCC: 0.377 ratio
GATATTTCGCATGCGCAATTCACAATAAGGTTCATACTCCTATGAGAATCTAATGCTGCCTCTGATCTGACAGGAGGCAGCTCAGGCAGTAGTGTAAACAATGGGGAGTGGCTGTAAATACAGATGAAGCTTTGCTCTCTCACTGCCAACTCACCTTCTGGTGTGCAGCCTGGTTCCTAACAGGCCACAGACA: 0.424 ratio
GGGGATTCTTTCATTATACAAATACATGTTATTTTTGAATTTCAAAAGAAATCATGTTATGTCAATCTATTGAGTGCTAACTAAAAGTTCTCTTTGTTTACTTAGCTTTCTCTTAGTTGTAAGAAAGAAAGAGACTTCTTGCATGAAAATAGTATGTTGCGGGAAGAAATTGCCATGCTAAGACTGGAGCTAG: 0.505 ratio
ATCTTCCCCCTCTTCCTTGCCCCACCAGTTCACCTTCCCGGGTATATTGGAGATAGGAAATTAATATAAGCCGGCATTCGTTAACCCTCTTCTGGCGCAAACTGCACATTGGTCTGGATGAATCATGGTCCTTTGGCGACGCCAGGCTCCGGGAGAGCAAAGCACCGTGTCAGGGCCATGATCCGGGGTGGCC: 0.0136 ratio
AGGCACAAGGTATGAATCACTAAGAATCTAGCAGCAGCTCTAGAAGCCTCCAAAGATAATTGCACTTCCCGGGGGTGGAGTCAACAGGGGGACGTAAATATGAAAGAACAGTGGATGGCCTAAATCAGTATGTGTCACTCTTTGTAAAGAGCCACAAGTGTTTGACTAGGGAAAAAGGAAAAGAGGCGAGAGT: 0.0134 ratio

Further values, each from its own experiment
B1: RBCK1 RING domain (UniProt Q9BYM8); chain SLVLNTEPAECPVCYSVLAPGEAVVLRECLHTFCRECLQGTIRNSQEAEVSCPFIDNTYSCSGKLLEREIK
B1 (RBCK1 RING domain) — lacZ reporter activity (UBE2D2 UBC core domain (UniProt P62837); yeast two-hybrid; yeast; mostly zero background; baseline: not given, higher = stronger interaction): 0

Some of these lines once more (set 2):
AGUCCUGUGCUACACAUCGUAUGUACCGAAUCGGGCCCCCGGCCCCCGGCCCCCGGGGAAAGUAUUAUGUUACGCCGUUCGGAUCUGCAC: -0.606
GCAGGAAGUAAAAACAAAUGGAAAUGCUUCGGAUAGUGGCAGGGGUGGGGGUUGCUAAGGAAAGGGUGGGAUGGGAGUGGGUAAAGCGUU: 1.03
